Published values pooled from the literature.
Numbered parts are unrelated; each lists some results of a single study. Positions count from the first letter of the parent shown.

Set 1 — method: DHFR PCA, deep sequencing; matrix: yeast; added: (+)-ABA 0.39 µM; baseline: wild-type fitted maximum; direction: higher = stronger binding
Target: ABI1, truncated, D143A, DHFR fusion (Arabidopsis thaliana)
Setting: methotrexate growth selection, single substitutions
Parent: PYL1, truncated, DHFR fusion (Arabidopsis thaliana); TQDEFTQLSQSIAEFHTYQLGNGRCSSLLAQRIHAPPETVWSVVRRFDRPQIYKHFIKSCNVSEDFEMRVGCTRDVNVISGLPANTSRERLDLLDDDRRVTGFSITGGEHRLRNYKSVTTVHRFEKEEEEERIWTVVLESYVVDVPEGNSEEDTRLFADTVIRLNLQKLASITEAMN; partner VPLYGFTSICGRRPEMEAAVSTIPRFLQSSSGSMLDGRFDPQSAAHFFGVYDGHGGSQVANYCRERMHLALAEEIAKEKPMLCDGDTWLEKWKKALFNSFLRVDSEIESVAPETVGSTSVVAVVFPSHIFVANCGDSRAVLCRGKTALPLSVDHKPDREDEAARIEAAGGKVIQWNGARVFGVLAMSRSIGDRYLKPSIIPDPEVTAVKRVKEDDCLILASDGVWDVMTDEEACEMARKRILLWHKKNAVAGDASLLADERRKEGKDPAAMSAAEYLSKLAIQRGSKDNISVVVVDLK
Variant	relative binding score [%]
E109G	7.6
V136I	41.8
S104F	-1.64
S150H	-3.27
D75G	-6.73
D159T	-16.3
S150Y	-10.4
N61Y	48.2
R155I	12.5
D97Y	15.5
L138F	21.4
S150I	-9.42
F56N	1.97
F47G	-6.53

Set 2 — method: RNA Bind-n-Seq; molecule type: RNA; matrix: in vitro; tested at: 200 nM; setting: whole 134-nt RNA, ends assumed; added: 150 mM KCl; baseline: input library; direction: higher = stronger binding
Target: Ras GTPase-activating protein-binding protein 1, full length (G3BP1, Homo sapiens, UniProt Q13283)
Sequence of UniProt Q13283 (whole entry, looked up): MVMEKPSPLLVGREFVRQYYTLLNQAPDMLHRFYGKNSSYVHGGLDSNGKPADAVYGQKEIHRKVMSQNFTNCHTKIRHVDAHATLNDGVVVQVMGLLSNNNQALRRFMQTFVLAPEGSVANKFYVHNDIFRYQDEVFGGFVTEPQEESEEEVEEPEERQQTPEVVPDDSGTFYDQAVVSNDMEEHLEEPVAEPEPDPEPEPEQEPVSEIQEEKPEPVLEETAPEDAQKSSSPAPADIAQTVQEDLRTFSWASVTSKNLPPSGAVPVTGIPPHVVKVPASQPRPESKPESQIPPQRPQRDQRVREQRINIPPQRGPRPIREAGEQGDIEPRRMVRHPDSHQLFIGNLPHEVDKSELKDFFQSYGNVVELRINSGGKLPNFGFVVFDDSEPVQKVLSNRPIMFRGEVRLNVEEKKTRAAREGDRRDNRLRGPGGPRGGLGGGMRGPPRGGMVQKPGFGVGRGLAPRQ
Strand	log2 enrichment
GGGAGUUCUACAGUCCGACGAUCUUUCUAGCUGGACCAGUCCGGUACGCUCCGGGCCUCACCGAGGAAGUCCCACCCUGCAGGGGAACCGACUCUGGCCGGCCCUAACCCCUCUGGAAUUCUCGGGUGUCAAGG	-0.458
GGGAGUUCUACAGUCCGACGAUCCAAGUCCUGUGCUACACAUCGUAUGUACCGAAUCGGGAGGGAGGGUUUUUUUGGGAAAGUAUUAUGUUACGCCGUUCGGAUCUGCACUUCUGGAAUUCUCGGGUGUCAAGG	0.47
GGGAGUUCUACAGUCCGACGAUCUGGGAGGUGGAUUUUGUUUAUUUUUUUAGCUCAUUUCCAGGGGUGGCAAUUUUUUUUUAAUAUGUGUCAUGAAUAAAGUUGUUUUUGAAAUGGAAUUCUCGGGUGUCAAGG	0.164
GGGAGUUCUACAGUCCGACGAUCCCUGUGCUACACAUCGUAUGUACCGAAUCGGGGUGGGGUUUUUUUGGGGUUUUUUUGGGGAAAGUAUUAUGUUACGCCGUUCGGAUCUGCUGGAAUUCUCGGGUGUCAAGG	0.159
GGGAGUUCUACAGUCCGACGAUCUGGCCCUGGUGGCAUGCGGGGAGGAAGCGGUGGCCUCAUGGAUCGUGGUGGUCCCGGUGGAAUGUUCAGAGGUGGCCGUGGUGGAGACAGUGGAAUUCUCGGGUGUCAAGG	-0.000486
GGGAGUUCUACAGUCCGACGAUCUCCUGUGCUACACAUCGUAUGUACCGAAUCGGGAAAAAAAGGGAAAGGGAAAAAAAGGGAAAGUAUUAUGUUACGCCGUUCGGAUCUGCAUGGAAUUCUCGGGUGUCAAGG	-0.318
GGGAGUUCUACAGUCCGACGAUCCCUGUGCUACACAUCGUAUGUACCGAAUCGGUUUUUUUGGUUUUUUUGGGUUUUUUUGGGGAAAGUAUUAUGUUACGCCGUUCGGAUCUGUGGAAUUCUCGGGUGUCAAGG	-1.08
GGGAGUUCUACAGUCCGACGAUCAAGUCCUGUGCUACACAUCGUAUGUACCGAAUCGGGUGGGAAAAAGGGAAAAAGGGAAAGUAUUAUGUUACGCCGUUCGGAUCUGCACUUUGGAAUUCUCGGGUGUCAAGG	0.0551
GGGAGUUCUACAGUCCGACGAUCCUGUGCUACACAUCGUAUGUACCGAAUCGGGUUUUUUUGGGUUUUUUUGGGGUUUUUUUGGGAAAGUAUUAUGUUACGCCGUUCGGAUCUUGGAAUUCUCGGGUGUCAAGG	-0.956
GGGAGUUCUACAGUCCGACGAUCUGCGGGCCGAGAAUCGGGAGCUGGGCAAACGCGUACAGGCACUGCAGGAGGAGAGUCGCUACCUACGGGCAGUCUUAGCCAACGAGACUGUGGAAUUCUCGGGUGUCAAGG	-0.842

Set 3 — method: RNA Bind-n-Seq; molecule type: RNA; matrix: in vitro; tested at: 365 nM; baseline: no-protein control; direction: higher = stronger binding
Target: RNA binding protein fox-1 homolog 2, RRM domain, GST-SBP tag (RBFOX2, Homo sapiens, UniProt O43251-10, residues 100-194)
Setting: natural RNA segment, single round, ends assumed
Construct (chain): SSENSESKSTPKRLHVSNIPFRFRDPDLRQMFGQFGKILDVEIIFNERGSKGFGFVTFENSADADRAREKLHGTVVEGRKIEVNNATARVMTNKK
Strand	RBNS enrichment (R)
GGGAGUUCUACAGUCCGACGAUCGUUUAAGGGCUUAAAUCUCAAACUUUGUUAGGAGUAACAGGAGCGUGCUGAGCGGGCAAGCAAUAAAACAAAUCAUACCAAAAAGCCACAUUGCUCUCUCCUAAGCCCCAUGGAAUUCUCGGGUGCCAA	0.476
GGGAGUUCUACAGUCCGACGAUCCUGUGGCUCCCUCUCUCCUGGACUGGUUAUCUUGUUAUUAUUGUUAAUAAUAAUUAUUAUUAUUAUUUUCCUUCCAUGCUCCCAACUCCCUUCUGCUUGUCCCAAAUCCGUGGAAUUCUCGGGUGCCAA	2.87
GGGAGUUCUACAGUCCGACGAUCUCUGUGCAAACAGUGAUGGAAGGCUGUUGUCUUGGUGUAUCCCUUGCCUCAUAGUCAAUAUAUUUUUUUUUUGGCGAGUCACCAGUGACCCGAGCCCUCCACACCAGCCUUGGAAUUCUCGGGUGCCAA	0.19
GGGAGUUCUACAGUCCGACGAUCUUUAUACGGAUUUCGGAUUUCUACCCACGUUUCCUCACUCUGUUUUCUAUAUAUUCUAUAUAAAUAUAUAUUGUGGAUGGCCGCCAUGGCGAGUGGUGGCUGGGGCUUUUUGGAAUUCUCGGGUGCCAA	0.587
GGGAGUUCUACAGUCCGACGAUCCCGUGUGUUGUCAUGUCACUCACCCCAAGCACCUGCUGGCUGCUGGAAGCAUACCCCAAGACCCCAAGCCUUGACUCCAGCUGCGCCCACAGGAAGUCCAGUCCCGACAGUGGAAUUCUCGGGUGCCAA	0.601
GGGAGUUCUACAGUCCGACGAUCAAACAUAUAUACAUAUCUAUACAUAUCUUUUGAAGUGUUGAAAGGAAUAGUACUUUAUAUUCUUUAUCAUACCACUUUUGUAAGUGUUGAAUAUAUUGCUGUUUAUUUUUUGGAAUUCUCGGGUGCCAA	0.518
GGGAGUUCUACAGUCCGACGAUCUUACUGGGUUUGUUUUUAAUAUUAUUACAAAAUAGAAUGAUCCAGUGUUGCAGAUUUGAUACAACUCCCCAAUCUAGAUUUGACCUAACAUUCUGAAUGAACAGGGUAGGUGGAAUUCUCGGGUGCCAA	0.381
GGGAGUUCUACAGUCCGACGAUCUAAAGCAAAAGUCACCUAUACCGUAAUAGAAAUGUUGCUAUCUCUAUACAAGUGCACUUUGAUCUGUAAAUAGUUCUAAUCAAAGCAUAACAAAACACUGCUUCAAGAUUUGGAAUUCUCGGGUGCCAA	0.306
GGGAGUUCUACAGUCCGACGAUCCACUUCAGGCCGCAUGGGCAGGAAUGUGGCCUGGGGCUGGCAGGGUUGGCAGGGCUGCCAUCCCAGCUGGCCGGAAAGAGGCUGUGGUUUCGAAUAUGCAGAUGGCCUUGUGGAAUUCUCGGGUGCCAA	0.651
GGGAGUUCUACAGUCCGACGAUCGUAAAGUUGUAUGUGCUGUUGUGUAAGUGUAACACUGUUUUUCUCUUGCAUGAAAUAGAUUUACUCUGCCAAUUUUAUCCAUGUUCUUGCUAAGUCUAUUGAUGAUAUGAUGGAAUUCUCGGGUGCCAA	3.32
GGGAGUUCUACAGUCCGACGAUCAAUUGCCUUUAGUCAACCACUGGAUUUGAAUUUGCAUCAAGUAUUUUAAAUAAUAUUGAAUUUAAAAAAAUGUAUUGCAGUAGUGUGUCAGUACCUUAUUGUUAAAGUGAUGGAAUUCUCGGGUGCCAA	1.5
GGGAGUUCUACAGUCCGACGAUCCACUUCCCUACACAUCUAUGGGUAUCACACCCAAGACUACCCACCAAGCUCAUACAGGGAACCACACCCAACACUUAGACAUGCGAACAAGCAGCCCCCAGCGAGGGUCUUGGAAUUCUCGGGUGCCAA	0.447

Set 4 — target: CCND1, cyclin fold, Cln2 fusion (human); method: yeast growth competition, sequencing; matrix: yeast; setting: weak parent motif; baseline: not given; direction: higher = stronger binding
Parent: DBF4B docking peptide (human); LGYLYLLLTQSLW; partner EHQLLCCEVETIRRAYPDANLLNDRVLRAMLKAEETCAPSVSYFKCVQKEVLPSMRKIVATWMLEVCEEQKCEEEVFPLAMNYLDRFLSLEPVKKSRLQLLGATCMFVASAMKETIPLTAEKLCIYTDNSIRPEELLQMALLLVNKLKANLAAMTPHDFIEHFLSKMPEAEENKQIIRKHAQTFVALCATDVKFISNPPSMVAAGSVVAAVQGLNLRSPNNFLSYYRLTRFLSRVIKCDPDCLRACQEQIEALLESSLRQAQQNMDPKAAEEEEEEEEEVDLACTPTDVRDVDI
Variant	normalised enrichment score
LGYLYLLLTASLW [Q10A]	0.335
LGYLYLALTQSLW [L7A]	0.345
LGYLYLLLAQSLW [T9A]	0.219
AGYLYLLLTQSLW [L1A]	0.399
LGYLALLLTQSLW [Y5A]	0.233
LGYAYLLLTQSLW [L4A]	0.641
LGYLYLLLTQALW [S11A]	0.0394

A few entries again (set 1):
Variant	relative binding score [%]
S150H	-3.27
D75G	-6.73
D159T	-16.3
S150Y	-10.4
N61Y	48.2
R155I	12.5
D97Y	15.5
